Experimental data gathered from unrelated publications.
A part holds a random share of what one study measured. Substitutions count along the parent as printed.

Series 1
Target: RNA binding protein fox-1 homolog 2, RRM domain, GST-SBP tag (RBFOX2, Homo sapiens, UniProt O43251-10, residues 100-194)
Technique: RNA Bind-n-Seq
Form: RNA
Sample: in vitro
Concentration: 365 nM
Setting: natural RNA segment, single round, ends assumed
Reference: no-protein control
Direction: higher = stronger binding
Constant ends, left off below: GGGAGUUCUACAGUCCGACGAUC … UGGAAUUCUCGGGUGCCAA
Target sequence (chain): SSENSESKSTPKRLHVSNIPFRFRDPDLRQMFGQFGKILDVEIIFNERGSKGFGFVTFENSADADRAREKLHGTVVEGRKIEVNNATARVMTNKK
For `CCCUGUAAUUAAAAACAAAGGCUAGGUAACUAUUGUGCCAGUGUUGACAGUUUAAACUGCUAACAGAUUGAGAGAUCCCUGCUCAGAAACCUCACCUUUAGUGCUUUCUU`, “RBNS enrichment (R)” read 0.308.
Under “RBNS enrichment (R)”, `UAUUUUGUAUCUGAGAUACCAGUUCCUUUUCCCAAAUAUAAAAGUAUAAAAGUUUUCUUGUGUUUUUCUGUGAGUGAAAAUUUUGUAAUAAAUUAACAAAUUUGUACAAU` is recorded as 0.765.
`UACAAACUUAAGUGUAUGUGCUAAAACUAAAUGUAUGUAACAUUUUUUUUUUAGCAGCGCCUUUGCUAGAUCAGCUGCCAGUUUGGAUUAUUGCCCUUAAGAGCUUUAAA`: “RBNS enrichment (R)” 0.333.
For `CUUGUGCUAGGAACACACCCUGCCCUCACUGCCCCACCUCCUGGGGCCCCACCGCCAUCGUCAGUCAAAUCAGUGCACCUCUCAAUCUGCCUCGCAGUGACUUCGCAGCA`, “RBNS enrichment (R)” read 0.697.
Under “RBNS enrichment (R)”, `UCCUCCUAUACUUCCUUGUUGCUCUAUAAGAAGUUGGUUGCCCAGAAACAAGAAGAAACAUUGUGAUUGCGAAGUGUCAUUUUGUUUUUUUUUUAAAUAACAUGUAUUAU` is recorded as 0.604.
For `CAAUACGUUUGUGCAGAAUCUCUAUGUAUAUUCUAUUUUAUUAAAUUAAUUGAAUCUAGUAUAUGCGGGAUGUACGACAUUUUGUGACUGAAGAGACUUGUUUCCUUCUA`, “RBNS enrichment (R)” read 0.331.
`AAACUGGGCGAGACAGAGCAUGUUUGCAGUCCUAGCAUUCAGCAGGUAGAGACAGGAAGAUGAGAAGUGCAAAGUAGUCUCGGCUAGGUAGUGUCAGGACUAUCCUGUGC`: “RBNS enrichment (R)” 9.02.
`AUUUUAUUUGAAUUGGAAUAUUGUUUUUCUAGAGGACAUUCAUAUCUGCACUAUUAUCUGAUGACAUGUUGGUAAUUUUAAAGACUGCAAGGCAGUUUAGAGAAUGAAGU` — result for “RBNS enrichment (R)”: 0.833.
For `ACCAAGGGGGCUCUUGCAUUGAGCAAUAUUGCCUUAUUUACUUUAGGGCACAAGCCAAGUCUUCAUGCCUUUGGGAAACAUCUGUCGGCCUCCCCACUCUGGUGUCUAUG`, “RBNS enrichment (R)” read 0.373.
For `UUUCUGAUUUCAUAAUUCAGAACUAAAUUUUUCAUAGAAGUGUUGAGCCAUGCUACAGUUAGUCUUGUCCCAAUUAAAAUACUAUGCAGUAUCUCUUACAUCAGUAGCAU`, “RBNS enrichment (R)” read 0.423.
Under “RBNS enrichment (R)”, `CCUUUCUAAGCUCCCUAACUUGGGCCAGAAACCAAAGCUGAGCUUUUAACUUUCUCCCUCUAUGACACAAAUGAAUUGAGGGUAGGAGGAGGGUGCACAUAACCCUUACC` is recorded as 0.47.
For `AAUUUUUGACUUAAUUUUGAAAUCGUAUAUAUGAGCUAUACUUUAACAUUAUGAGAGAAAAGCAUAAAACAAAAAUAGGUAGUUCUUGGCUUUUAACAUUAAUGCAAAUC`, “RBNS enrichment (R)” read 0.617.

Series 2
Target: Interferon regulatory factor 3, full length, phosphomimetic (IRF3, Homo sapiens, UniProt Q14653, residues 1-427, S386D/S396D/S398D/S402D/T404D/S405D)
Technique: protein-binding microarray
Form: double-stranded DNA, one strand shown
Sample: in vitro
Concentration: 2540 nM top
Setting: 60-bp whole probe
Added: salmon DNA 0.4 mg/ml
Reference: random background probes
Direction: higher = stronger binding
Constant ends, left off below: GCCTAGCAC … GTCTTGATTCGCTTGACGCTGCTG
Construct (chain): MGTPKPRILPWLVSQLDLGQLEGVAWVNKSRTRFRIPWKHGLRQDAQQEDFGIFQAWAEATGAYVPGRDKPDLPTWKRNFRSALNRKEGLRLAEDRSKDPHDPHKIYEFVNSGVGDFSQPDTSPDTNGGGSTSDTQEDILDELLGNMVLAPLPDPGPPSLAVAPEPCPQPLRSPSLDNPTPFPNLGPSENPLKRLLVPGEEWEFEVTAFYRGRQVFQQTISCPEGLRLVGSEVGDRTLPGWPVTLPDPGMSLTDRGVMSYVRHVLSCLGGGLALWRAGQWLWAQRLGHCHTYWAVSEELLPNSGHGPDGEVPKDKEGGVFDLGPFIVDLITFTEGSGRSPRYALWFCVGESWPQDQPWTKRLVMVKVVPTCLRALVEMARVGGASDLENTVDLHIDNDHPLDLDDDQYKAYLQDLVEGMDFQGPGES
For `GACGGACTGGGTCTCGGGTCGTGCTAG`, “fitted relative affinity” read -0.547 z-score.
`GACGGTTTCGTACTGCTGACGTGCTAG` — result for “fitted relative affinity”: 3.93 z-score.
`CCATTTTGGTTTTCTCTATTGGTGCTA` — result for “fitted relative affinity”: 2.56 z-score.
Under “fitted relative affinity”, `TTAGGACTGCTCCTCCTTTAGTGCTAG` is recorded as -0.0637 z-score.
For `TTACATTTCAGTCTCGATTAGTGCTAG`, “fitted relative affinity” read 2.48 z-score.
Under “fitted relative affinity”, `GGGAATTTAGAAAATGGAAATGTGCTA` is recorded as -0.105 z-score.
Under “fitted relative affinity”, `TTAGGTTCCGGTTGCGGTTAGTGCTAG` is recorded as 3.19 z-score.
For `TTAGGGCTCGGTATCGGTTAGTGCTAG`, “fitted relative affinity” read 1.49 z-score.
`TCAGCTCTCCGGGGTCTGACTGTGCTA`: “fitted relative affinity” -0.347 z-score.
`CTAGTAGCCTAAGGCTACCGGTGCTAG` — result for “fitted relative affinity”: 0.794 z-score.
`ATCTCTTTCCTTACTTCCCAGTGCTAG`: “fitted relative affinity” 4.7 z-score.
Under “fitted relative affinity”, `GACGGTATCGACGATCGGGACGTGCTA` is recorded as 0.0806 z-score.
For `CAGCCTTTGCCTCATCTTGCAGTGCTA`, “fitted relative affinity” read 0.00756 z-score.
For `TTGTGTCTGGGCATTTTTTTTGTGCTA`, “fitted relative affinity” read -0.904 z-score.
`GACGGTATCCTTCTACTGACGTGCTAG` — result for “fitted relative affinity”: 5.31 z-score.
`GACGGTATCCGACTGGGGACGTGCTAG` — result for “fitted relative affinity”: 2.06 z-score.
Under “fitted relative affinity”, `TCAGGTATCGGTATCGGTTAGTGCTAG` is recorded as 5.41 z-score.
For `TAGACTCTGTGCTTTCCTCGTGTGCTA`, “fitted relative affinity” read -0.392 z-score.
For `GACGGTCTCTTTCTCCTGACGTGCTAG`, “fitted relative affinity” read 2.09 z-score.
`TTAGGACTGCTACGGCTTTAGTGCTAG`: “fitted relative affinity” -0.85 z-score.
`TCAGTCTTCAGGTTCTCACTGTGCTAG` — result for “fitted relative affinity”: 0.444 z-score.
Under “fitted relative affinity”, `GACAGTTTCCTTTCCCTGACGTGCTAG` is recorded as 10.6 z-score.
Under “fitted relative affinity”, `ATGAAGTTCTTTTTTTCAAGGTGCTAG` is recorded as 0.974 z-score.
For `GACGGACTGGGTATCGGGAAGTGCTAG`, “fitted relative affinity” read -0.121 z-score.
`TTAGATTTCTGGTATCGATTAGTGCTA`: “fitted relative affinity” 0.721 z-score.

Series 3
Target: CCNA2, cyclin fold, Cln2 fusion (human)
Technique: yeast growth competition, sequencing
Sample: yeast
Setting: strong parent motif
Reference: not given
Direction: higher = stronger binding
Parent: MICAL3 docking peptide (human); LQLRRQLSFSEDS
`F9L` — result for “normalised enrichment score”: -0.232.
`E11Q` — result for “normalised enrichment score”: 3.1.
For `L3Q`, “normalised enrichment score” read 0.495.
For `Q6F`, “normalised enrichment score” read 1.
Under “normalised enrichment score”, `Q6V` is recorded as 2.07.
`F9V` — result for “normalised enrichment score”: -0.138.
Under “normalised enrichment score”, `E11F` is recorded as 2.63.
`S8C`: “normalised enrichment score” 3.48.
`E11A` — result for “normalised enrichment score”: 3.06.
Under “normalised enrichment score”, `R5A` is recorded as 0.0312.
Under “normalised enrichment score”, `L3T` is recorded as 5.63.
For `R5K`, “normalised enrichment score” read 1.31.
Under “normalised enrichment score”, `R5T` is recorded as 0.201.
For `L7A`, “normalised enrichment score” read 0.13.
`E11K` — result for “normalised enrichment score”: 2.95.
`L7Q`: “normalised enrichment score” 0.165.
`D12S`: “normalised enrichment score” 3.18.
Under “normalised enrichment score”, `Q2K` is recorded as 4.49.
For `S8Q`, “normalised enrichment score” read 3.41.
For `F9A`, “normalised enrichment score” read 0.128.
Under “normalised enrichment score”, `Q6M` is recorded as 2.81.
Under “normalised enrichment score”, `S10E` is recorded as 2.61.
`L7G`: “normalised enrichment score” -0.254.
For `Q6I`, “normalised enrichment score” read 1.3.
Under “normalised enrichment score”, `R4A` is recorded as 2.52.

Series 4
Target: Phosphate system positive regulatory protein PHO4, full length, GST-tagged (PHO4, Saccharomyces cerevisiae, UniProt P07270, residues 1-312)
Technique: competition protein-binding microarray
Form: double-stranded DNA, one strand shown
Sample: in vitro
Concentration: 2 µM
Setting: whole 60-bp probe, lowest competitor level
Added: Cbf1 competitor, 0.05 µM
Direction: higher = stronger binding
Constant ends, left off below: … GTCTTGATTCGCTTGACGCTGCTG
Construct (chain): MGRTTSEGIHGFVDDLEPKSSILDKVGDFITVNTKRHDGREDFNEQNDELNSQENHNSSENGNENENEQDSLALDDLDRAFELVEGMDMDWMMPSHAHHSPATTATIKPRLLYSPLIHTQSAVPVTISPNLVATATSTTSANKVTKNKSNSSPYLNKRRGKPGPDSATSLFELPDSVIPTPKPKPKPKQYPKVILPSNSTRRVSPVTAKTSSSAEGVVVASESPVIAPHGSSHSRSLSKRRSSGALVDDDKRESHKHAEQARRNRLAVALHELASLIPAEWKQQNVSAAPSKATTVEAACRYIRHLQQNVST
The fluorescence intensity of `TATTGGTTTTGGAAACACGTTTCGAATCTTCAGTAT` is reported as 12300 a.u.
For `ATTTACGGTTAGTCCCACGCTATAACCCGCCGTTGT`, the fluorescence intensity was 6610 a.u.
`ATTTTGCACTTCCGTCACATGCAATCGAGGCAAAAA` gave a fluorescence intensity of 7740 a.u.
The fluorescence intensity of `CTGTTGGGTTTTTCTCTCGAGCAAGCCGTTATAATT` is reported as 3300 a.u.
`CGGGGTTAAGTTTGTTGGGTGGGTGGCTTGCAGCAG` gave a fluorescence intensity of 4640 a.u.
For `AATTTGAATGGTAAGCTCGTGACGGAATTGTGGCTG`, the fluorescence intensity was 8390 a.u.
The fluorescence intensity of `ACCCAGTTCACAAGCACCGTGAAGCTAGAGGTTTGA` is reported as 4260 a.u.
With `GGCAAGAGTTCTGCATTCGTGATGGATATCGGCGCG` the fluorescence intensity was 4330 a.u.
`TGCTACGCGTAGTGCAGCGTGACGGCGGGCTAAAAA` gave a fluorescence intensity of 5150 a.u.
`AGATACATACATGAACATATGCACTTATAGCGCCCA` gave a fluorescence intensity of 5570 a.u.
`CATACCCAACCTTGAGAGGTGGGTGAAGATATTTGT` gave a fluorescence intensity of 3880 a.u.
For `CATTTCCATCGATGCCATGTGACAGGGTGAATCTCG`, the fluorescence intensity was 9600 a.u.
With `CGGGGTTAAGTTTTTCACGTGATCTGCTTGCAGCAG` the fluorescence intensity was 10800 a.u.
The fluorescence intensity of `CAATTTGTGGTCTTCGTCGTGCTTTGTGGGTTTAGC` is reported as 7190 a.u.
With `AAATTACTAAGTTTTCACGTGAAATACCCCGTATGA` the fluorescence intensity was 8970 a.u.
`AAAAGATATTATCCTCACGTGGAGTTATTGTAAAAA` has a fluorescence intensity of 13000 a.u.
For `TTCACTTCGGGTTTTGCCGTGCCGAACTTTTCAGAT`, the fluorescence intensity was 4260 a.u.
The fluorescence intensity of `CGTCCTAGCGATTGAACTGTGGGTGCCATGAGGAAG` is reported as 5690 a.u.
For `TACTCTGTAGTATTCCCCGTGAGGATCCACAGCACC`, the fluorescence intensity was 5320 a.u.
The fluorescence intensity of `CATACCCAACCTTGGAATGTGGGTGAAGATATTTGT` is reported as 6580 a.u.
With `CCATTTGGATATAAGCTTGTGACAGTGACAGTAGAG` the fluorescence intensity was 6070 a.u.
With `CGTCCTAGTGATTGCCCCGTGGGTGCCATGAGGAAG` the fluorescence intensity was 11200 a.u.
For `GACATATTACATTTCCTCGTGCTTTTCGAAGTATTT`, the fluorescence intensity was 13400 a.u.
`TGCTATTGATATTACGACATGTGTGCTTCTCATGAT` gave a fluorescence intensity of 9390 a.u.
`GACACTTTTACATACGGCGTGCGATGCTGGTATCCT` has a fluorescence intensity of 9420 a.u.

Excerpt of the above (series 3):
`S8C`: “normalised enrichment score” 3.48.
`E11A` — result for “normalised enrichment score”: 3.06.
Under “normalised enrichment score”, `R5A` is recorded as 0.0312.
Under “normalised enrichment score”, `L3T` is recorded as 5.63.
For `R5K`, “normalised enrichment score” read 1.31.
Under “normalised enrichment score”, `R5T` is recorded as 0.201.
For `L7A`, “normalised enrichment score” read 0.13.
